# Published values from different studies.
# Each line is one published result; not all experiments were run side by side. “And” joins repeats or separate records; there may be more than shown. Numbers after ± are the reported error.
# Sequence of UniProt Q8NE63 (whole entry, looked up): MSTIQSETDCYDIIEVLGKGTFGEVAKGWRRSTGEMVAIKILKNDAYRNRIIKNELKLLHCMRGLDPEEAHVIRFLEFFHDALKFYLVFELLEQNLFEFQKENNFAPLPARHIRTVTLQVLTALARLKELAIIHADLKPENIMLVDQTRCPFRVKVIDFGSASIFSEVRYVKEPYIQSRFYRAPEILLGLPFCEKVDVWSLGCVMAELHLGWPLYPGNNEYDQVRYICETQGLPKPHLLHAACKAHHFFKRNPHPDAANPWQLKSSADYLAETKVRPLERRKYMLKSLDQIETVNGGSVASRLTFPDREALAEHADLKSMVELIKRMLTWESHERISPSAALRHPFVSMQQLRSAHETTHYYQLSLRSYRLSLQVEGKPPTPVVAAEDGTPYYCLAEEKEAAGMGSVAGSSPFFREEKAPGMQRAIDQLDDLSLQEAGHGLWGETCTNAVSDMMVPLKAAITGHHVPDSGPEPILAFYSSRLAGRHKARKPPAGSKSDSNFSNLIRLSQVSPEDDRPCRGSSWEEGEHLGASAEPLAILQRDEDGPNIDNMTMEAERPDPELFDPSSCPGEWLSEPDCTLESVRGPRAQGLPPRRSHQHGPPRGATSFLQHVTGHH
SMILES,tested on,test,system,conditions,how to read,quantity,result
C[N+](C)(CCOCCOCCOCCNC(=S)Nc1ccc(C[C@H]2CN(CC(=O)[O-])CCN(CC(=O)[O-])CCN2CC(=O)[O-])cc1)C[c-]1cccc1.[64Cu+2].[Fe+2].c1cc[cH-]c1,,,"human adult male, stomach wall",extrapolated from mouse biodistribution,,absorbed dose,2.51 µSv/MBq
CCCC[C@H]1C(=O)N(C)[C@@H](CCCC)C(=O)N[C@@H](CCCCNC(=S)Nc2ccc(CN3CCN(CC(=O)O)CCN(CC(=O)O)CC3)cc2)C(=O)N[C@H](C(=O)NCC(N)=O)CSCC(=O)N[C@@H](Cc2ccc(O)cc2)C(=O)N(C)[C@@H](C)C(=O)N[C@@H](CC(N)=O)C(=O)N2CCC[C@H]2C(=O)N[C@@H](Cc2cnc[nH]2)C(=O)N[C@@H](CCC(=O)O)C(=O)N2C[C@H](O)C[C@H]2C(=O)N[C@@H](Cc2c[nH]c3ccccc23)C(=O)N[C@@H](CO)C(=O)N[C@@H](Cc2cn(CC(=O)O)c3ccccc23)C(=O)N1C [fluorine-18 labelled],,"PET, measured: PD-L1","huCD34 mouse A-375 xenograft, tumour periphery beyond 3 mm",pretreatment,,SUV,0.84 ± 0.28 SUV
C=CC(=O)Nc1cccc(Cn2ncc3cnc(Nc4cnn(CCOC)c4)nc32)c1,TLK1 human,"binding, KINOMEscan",,100 nM,lower = stronger binding,percent of control,100%
CCC(C(=O)Nc1ccc(C(N)=O)c(F)c1)n1cc(OC)c(-c2cc(Cl)ccc2-n2cc(C(F)(F)F)nn2)cc1=O (centres unmarked),,,healthy male humans,"50 mg, IR formulation, fasted",,treatment-emergent adverse events,6.7%
CN1C(=O)[C@@H](Cc2ccc(O)c(I)c2)NC(=O)CNC(=O)[C@H](Cc2ccc3ccccc3c2)NC(=O)[C@H](CCCNC(=N)N)NC(=O)[C@H]1CCCNC(=O)c1ccc(CNC(=O)CN2CCN(CC(=O)O)CCN(CC(=O)O)CCN(CC(=O)O)CC2)cc1 [lutetium-177 labelled],,"extrapolation method 1, OLINDA/EXM, measured: 177Lu radioactivity","human, extrapolated from mice, heart wall",,,absorbed dose coefficient,0.0085 mGy/MBq
CC[C@H](C)/C=C/C=C/C=C/C(O)=C/C(=O)C(F)(F)F,,UPLC-MS,PBS,ketone-hydrate equilibrium,,ketone fraction at equilibrium,55%
CCN(CC)c1ccc2c(c1)O[B-]1(c3ccccc3)OC(=O)C(c3ccccc3)=N[N+]1=C2C (centres unmarked),,UV/vis decay,aqueous buffer,,,hydrolysis activation energy,21.9 kcal/mol
CC(C)(C)C(=O)Nc1ccc2[nH]c(CN3CCC(N(CCCN4CCOCC4)CC4OC(n5cnc6c(N)ncnc65)C(O)C4O)CC3)nc2c1 (centres unmarked),,,"male Sprague-Dawley rat, plasma","intraperitoneal, 20 mg/kg, 10 h",,concentration,21 ng/mL
Cc1cccc(-c2ccc3nc(N)nn3c2)c1,,,human liver microsomes,40 min,,metabolic turnover,33%
Nc1ncc(-c2cc(-c3cnn(CC(F)(F)F)c3)ncc2F)nc1C(=O)NC1CNCC(F)C1 (centres unmarked),PRKG2,KINOMEscan,,1 µM,relative to: DMSO control,remaining binding,100%
CCCC[C@H](NC(=O)CNC(=O)CNC(=O)[C@H](CCCCNC(=O)[C@H](CC(=O)O)NC(=O)C(C)c1ccc(CC(C)C)cc1)NC(=O)CN1CCN(CC(=O)O)CCN(CC(=O)O)CCN(CC(=O)O)CC1)C(=O)N[C@H]1CC(=O)NCCCC[C@@H](C(N)=O)NC(=O)[C@H](Cc2c[nH]c3ccccc23)NC(=O)[C@H](CCCNC(=N)N)NC(=O)[C@@H](Cc2ccccc2)NC(=O)[C@H](Cc2c[nH]cn2)NC1=O (some centres unmarked) [lutetium-177 labelled],,,"C57 mice, tumour","intravenous, 0.037 MBq, 0.5 h",relative to: muscle,tumour-to-tissue ratio,20.5
CCN(CC)CC#CCNc1ccnc2cc(Cl)ccc12,Salmonella typhimurium,mini-Ames test,TA1535,"500.0 µg/well, with rat liver S9",,revertants per well,4
C=C(NC(=O)c1csc(-c2nc3c(cc2O)-c2nc(cs2)C(=O)NC(C(C)O)C(=O)NC(=C(C)OC)c2nc(cs2)C(=O)NC2c4nc(cs4)C(=O)NC(COC(=O)c4c5c6c(cccc6n4O)COC(=O)C(OC4CC(C)(O)C(N(C)C)C(C)O4)C2OC5)c2nc-3cs2)n1)C(N)=O (centres unmarked),,,"Sprague-Dawley rat, female, plasma","intravenous infusion, 6 mg/kg, multiple doses, day 1",,MRT(0-last),1.25 h
O=C(O)CCCOc1ccc([18F])cc1-c1cc(-c2ccccc2C(F)(F)F)n(-c2ccccc2)n1,,OLINDA/EXM from mouse data,"human adults, skin",,,absorbed dose,5.83 µGy/MBq
CCCCN1C(=O)c2cccc3c(NCCCCCCN4CCOCC4)ccc(c23)C1=O,,,chloroform,,,fluorescence lifetime,9.8 ns
CC(C)OCCOCc1ccc(OCC(O)CN(N=O)C(C)C)cc1 (centres unmarked),Salmonella typhimurium,Ames test,TA1537,"50 µg/plate, 30 % rat S9",relative to: solvent control,revertant fold increase,1.3 fold
CCc1cnc(NC(=O)c2cc(S(=O)(=O)N3CCOCC3)ccc2N(C)C2CCCC2)s1,,,"mouse, blood","10 mg/kg, 3 doses",,Eosinophils absolute count,193 µL⁻¹
CN1CCC[C@]1(C)/C=C/S(=O)(=O)NC(=O)Nc1c2c(cc3c1CCC3)CCC2,,"measured: neutrophil count decreased, possibly related",human,"oral, 12.5 mg twice daily, 14 days, multiple ascending dose",,subjects with adverse event,16.7%
C=CC(=O)Nc1cc(Nc2nccc(-c3cn(C)c4ccccc34)n2)c(OC)cc1N(C)CCNC,,storage stability,human plasma,"24 h, -80 °C, low QC level",,recovery,95.9%
CC(C)(O)c1ncc([S@](N)(=O)=NC(=O)Nc2c3c(cc4c2CCC4)CCC3)s1,,measured: infections and infestations,healthy human,"oral, 30 mg, 14 days, CS formulation, once daily",,subjects with TEAEs,17%
Cc1nn(-c2nc3c(F)cc(F)cc3s2)c(O)c1C(c1ccc(C(F)(F)F)cc1)c1c(C)nn(-c2nc3c(F)cc(F)cc3s2)c1O,,,"ICR mouse, plasma","intravenous, 5 mg/kg",,AUMC(0-t),215000 h²·ng/mL and 771000 h²·ng/mL and 195000 h²·ng/mL
CC(=O)N([O-])CCCCCNC(=O)CCC(=O)N([O-])CCCCCNC(=O)CCC(=O)N([O-])CCCCCN.[89Zr+4],,,0.9 % NaCl saline,"5 days, pH 4.5, 37 °C",,intact compound,98.2 ± 2.1%
Cc1ncsc1-c1ccc(C(C)NC(=O)C2CC(O)CN2C(=O)C(NC(=O)CCCCCCCCCCN2CCCC(Nc3ncc(Cl)c(Nc4ccccc4S(=O)(=O)C(C)C)n3)C2)C(C)(C)C)cc1 (centres unmarked),22Rv1,"RNA-seq, measured: ZNF473 mRNA",,concentration not given,relative to: DMSO,log2 fold change,-1.15
C/C(N)=N/C(=N\S(=O)(=O)c1ccc(C(F)(F)F)cc1)N1C[C@H](c2ccccc2)C(c2ccc(Cl)cc2)=N1,,,"female cynomolgus monkey, plasma","oral, 18 mg/kg",,half-life,10.5 h
CN1CCC[C@]1(C)/C=C/S(=O)(=O)NC(=O)Nc1c2c(cc3c1CCC3)CC=C2,,,"human, plasma","oral, 50 mg twice daily of parent drug, day 14, metabolite of dosed drug",,AUC(0-24),496 µg·h/mL
O=C([O-])CN1CCN(CC(=O)[O-])CCN(CC(CCCc2ccccc2[N+](=O)[O-])N(CC(=O)[O-])CC(=O)[O-])CC1.[177Lu+3] (centres unmarked),,HPLC,human serum,"134 h, pH 7, 37 °C",,intact radiolabelled complex,100%
O=C(c1cccc(N2Cc3cn(Cc4ccc(F)cc4)nc3C2)c1)N1CCCCC1,,metabolic stability,"human, liver microsomes",,,half-life,0.3 h
C=CC(=O)Nc1cc(Nc2nccc(-c3c[nH]c4ccccc34)n2)c(OC)cc1N(C)CCN(C)C,,,human plasma,"24 h, storage stability, low QC sample",,recovery,56.4%
N[C@@H](CC(=O)O)C(=O)OC(C(=O)O)c1ccc(Br)cc1[N+](=O)[O-] (mixture of isomers),,"1H NMR, dark",50 mM sodium phosphate,"concentration not given, pH 9.0, room temperature, 12.5% DMSO-d6",,"hydrolysis half-life, A isomer",17.2 ± 0.6 h
C=C[C@]1(C)C[C@@H](OC(=O)CSc2ccc(NC(=O)c3ccco3)cc2)[C@]2(C)[C@H](C)CC[C@]3(CCC(=O)[C@H]32)[C@@H](C)[C@@H]1O,,,"Mycoplasma gallisepticum-infected chickens, plasma","intramuscular, 5 mg/kg, 12 h",,plasma concentration,1.89 ng/mL and 14 ng/mL and 1.8 ng/mL and 12.7 ng/mL and 3.04 ng/mL and 8.21 ng/mL
Cc1nn(-c2cccc(N)c2)c(=O)c2cnc(Nc3ccc(N4CCNCC4)cc3)nc12,"HIPK4 (Homo sapiens, UniProt Q8NE63)","enzyme activity, inhibitor",,,,IC50,> 10 µM
O=C(NS(=O)(=O)c1cccs1)c1cc2ccccc2n1Cc1ccc(Br)c2ccccc12,,,"Sprague-Dawley rat, male, plasma","oral, 2 mg/kg, 2 h",,plasma concentration,376 ng/mL
CCOC(=O)[C@H](Cc1ccc(OC)cc1)NC(=O)c1ccc(C2CC2)c(Cc2ccc(F)cc2)n1,,,aqueous buffer with DMSO,,,kinetic solubility,1.6 µg/mL
Cc1ccc(S(=O)(=O)Oc2nc3nc4ccccc4nc3nc2OS(=O)(=O)c2ccc(C)cc2)cc1,,dynamic light scattering,buffer,20 µM,,hydrodynamic radius,2.31 nm
O=C(Nc1cnccc1-c1ccc([18F])nc1)c1ccnc(NC(=O)C2CC2)c1,,,"mice, transgenic, GSK-3β, early-stage, heart","intravenous, dose not given, 120 min, together with: tariquidar 15 mg/kg i.v. pre-dose",,SUV,0.166
COC1CN([C@H]2CC[C@H]([C@@]3(C)Oc4c(Cl)cc(C(=O)NCc5c(SC)cc(C)[nH]c5=O)c(C)c4O3)CC2)C1,,"RNA-seq, measured: BMPR1A mouse homolog","mouse, HT-1376 xenograft, whole blood",dose not given,relative to: vehicle,log2 fold change,0.302
CCC1=[N+]2N=C(/C=C/C=C/c3ccccc3)C(=O)O[B-]2(c2ccccc2)Oc2cc(N(CC)CC)ccc21 (centres unmarked),,UV/vis decay,aqueous buffer,,,hydrolysis activation energy,24.4 kcal/mol
CN(O)C(=O)CCC(=O)NCCCN(CCCCN(CCCNC(=O)CCC(=O)N(C)O)C(=O)CCC(=O)N(C)O)C(=O)CCC(=O)N(C)O.[89Zr],,,"mouse, fat",1 h,,tracer uptake,0.21 %ID/g

# For quick reference, copied from above:
SMILES,tested on,test,system,conditions,how to read,quantity,result
CN1CCC[C@]1(C)/C=C/S(=O)(=O)NC(=O)Nc1c2c(cc3c1CCC3)CCC2,,"measured: neutrophil count decreased, possibly related",human,"oral, 12.5 mg twice daily, 14 days, multiple ascending dose",,subjects with adverse event,16.7%
C=CC(=O)Nc1cc(Nc2nccc(-c3cn(C)c4ccccc34)n2)c(OC)cc1N(C)CCNC,,storage stability,human plasma,"24 h, -80 °C, low QC level",,recovery,95.9%
CC(C)(O)c1ncc([S@](N)(=O)=NC(=O)Nc2c3c(cc4c2CCC4)CCC3)s1,,measured: infections and infestations,healthy human,"oral, 30 mg, 14 days, CS formulation, once daily",,subjects with TEAEs,17%
Cc1nn(-c2nc3c(F)cc(F)cc3s2)c(O)c1C(c1ccc(C(F)(F)F)cc1)c1c(C)nn(-c2nc3c(F)cc(F)cc3s2)c1O,,,"ICR mouse, plasma","intravenous, 5 mg/kg",,AUMC(0-t),215000 h²·ng/mL and 771000 h²·ng/mL and 195000 h²·ng/mL
CC(=O)N([O-])CCCCCNC(=O)CCC(=O)N([O-])CCCCCNC(=O)CCC(=O)N([O-])CCCCCN.[89Zr+4],,,0.9 % NaCl saline,"5 days, pH 4.5, 37 °C",,intact compound,98.2 ± 2.1%
Cc1ncsc1-c1ccc(C(C)NC(=O)C2CC(O)CN2C(=O)C(NC(=O)CCCCCCCCCCN2CCCC(Nc3ncc(Cl)c(Nc4ccccc4S(=O)(=O)C(C)C)n3)C2)C(C)(C)C)cc1 (centres unmarked),22Rv1,"RNA-seq, measured: ZNF473 mRNA",,concentration not given,relative to: DMSO,log2 fold change,-1.15
